# Published values from different studies.
# ± marks the error that the study gave.
# Cereblon/Ikaros: Cereblon/Ikaros (Homo sapiens, UniProt Q13422+Q96SW2)
# MAPK8: Mitogen-activated protein kinase 8 (MAPK8, Homo sapiens, UniProt P45983)
# Sequence of UniProt P45983 (whole entry, looked up): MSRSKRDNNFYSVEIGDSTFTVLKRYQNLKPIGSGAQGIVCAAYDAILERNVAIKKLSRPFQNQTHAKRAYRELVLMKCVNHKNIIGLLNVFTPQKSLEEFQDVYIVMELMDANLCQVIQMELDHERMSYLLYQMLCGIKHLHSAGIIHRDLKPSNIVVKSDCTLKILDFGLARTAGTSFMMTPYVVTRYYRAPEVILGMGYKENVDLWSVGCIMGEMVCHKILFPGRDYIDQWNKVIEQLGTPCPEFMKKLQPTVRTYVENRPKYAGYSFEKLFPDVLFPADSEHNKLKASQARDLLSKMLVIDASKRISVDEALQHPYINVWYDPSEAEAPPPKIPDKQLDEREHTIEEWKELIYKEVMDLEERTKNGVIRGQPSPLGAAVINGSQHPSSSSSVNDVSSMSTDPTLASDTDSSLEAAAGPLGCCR
# MAOA: Amine oxidase [flavin-containing] A (MAOA, Homo sapiens, UniProt P21397)
# Sequence of UniProt P21397 (whole entry, looked up): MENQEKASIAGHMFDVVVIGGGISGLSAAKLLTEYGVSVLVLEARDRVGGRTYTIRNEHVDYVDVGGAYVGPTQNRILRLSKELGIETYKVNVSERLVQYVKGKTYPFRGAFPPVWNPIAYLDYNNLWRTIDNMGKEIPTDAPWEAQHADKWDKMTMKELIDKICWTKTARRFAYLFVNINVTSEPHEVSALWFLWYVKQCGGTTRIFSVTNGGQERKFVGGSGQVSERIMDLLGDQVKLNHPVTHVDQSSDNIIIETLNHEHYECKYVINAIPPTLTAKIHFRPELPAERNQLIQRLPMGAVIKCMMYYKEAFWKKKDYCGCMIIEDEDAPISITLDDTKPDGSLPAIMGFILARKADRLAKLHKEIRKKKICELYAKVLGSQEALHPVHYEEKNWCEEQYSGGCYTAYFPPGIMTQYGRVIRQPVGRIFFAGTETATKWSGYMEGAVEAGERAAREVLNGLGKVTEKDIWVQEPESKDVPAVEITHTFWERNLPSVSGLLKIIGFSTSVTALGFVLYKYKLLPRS
# IL1RL2: Interleukin-1 receptor-like 2 (IL1RL2, Homo sapiens, UniProt Q9HB29)
# Sequence of UniProt Q9HB29 (whole entry, looked up): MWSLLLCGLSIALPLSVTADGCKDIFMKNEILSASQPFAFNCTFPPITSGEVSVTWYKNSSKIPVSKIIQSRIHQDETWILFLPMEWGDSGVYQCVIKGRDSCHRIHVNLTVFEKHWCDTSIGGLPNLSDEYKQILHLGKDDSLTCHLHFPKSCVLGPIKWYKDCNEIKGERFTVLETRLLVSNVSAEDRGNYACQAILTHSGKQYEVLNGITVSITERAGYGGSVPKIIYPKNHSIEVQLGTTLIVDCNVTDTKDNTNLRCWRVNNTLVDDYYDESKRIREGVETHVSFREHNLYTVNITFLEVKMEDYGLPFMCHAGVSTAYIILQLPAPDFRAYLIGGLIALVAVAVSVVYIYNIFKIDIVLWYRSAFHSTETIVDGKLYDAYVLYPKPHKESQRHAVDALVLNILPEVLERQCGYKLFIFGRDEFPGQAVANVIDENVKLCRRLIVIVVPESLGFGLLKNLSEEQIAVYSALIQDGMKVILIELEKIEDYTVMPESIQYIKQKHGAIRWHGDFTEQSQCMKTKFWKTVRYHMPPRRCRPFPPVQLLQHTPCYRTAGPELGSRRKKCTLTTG
# Sequence of UniProt P20231 (whole entry, looked up): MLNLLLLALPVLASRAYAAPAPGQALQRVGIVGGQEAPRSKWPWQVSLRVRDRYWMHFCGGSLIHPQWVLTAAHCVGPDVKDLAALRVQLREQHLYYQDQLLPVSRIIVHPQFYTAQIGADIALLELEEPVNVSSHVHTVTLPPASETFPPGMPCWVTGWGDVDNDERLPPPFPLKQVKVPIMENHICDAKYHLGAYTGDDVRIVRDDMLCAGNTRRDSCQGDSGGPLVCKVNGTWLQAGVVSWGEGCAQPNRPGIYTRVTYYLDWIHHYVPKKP
# Sequence of UniProt Q6PJP8 (whole entry, looked up): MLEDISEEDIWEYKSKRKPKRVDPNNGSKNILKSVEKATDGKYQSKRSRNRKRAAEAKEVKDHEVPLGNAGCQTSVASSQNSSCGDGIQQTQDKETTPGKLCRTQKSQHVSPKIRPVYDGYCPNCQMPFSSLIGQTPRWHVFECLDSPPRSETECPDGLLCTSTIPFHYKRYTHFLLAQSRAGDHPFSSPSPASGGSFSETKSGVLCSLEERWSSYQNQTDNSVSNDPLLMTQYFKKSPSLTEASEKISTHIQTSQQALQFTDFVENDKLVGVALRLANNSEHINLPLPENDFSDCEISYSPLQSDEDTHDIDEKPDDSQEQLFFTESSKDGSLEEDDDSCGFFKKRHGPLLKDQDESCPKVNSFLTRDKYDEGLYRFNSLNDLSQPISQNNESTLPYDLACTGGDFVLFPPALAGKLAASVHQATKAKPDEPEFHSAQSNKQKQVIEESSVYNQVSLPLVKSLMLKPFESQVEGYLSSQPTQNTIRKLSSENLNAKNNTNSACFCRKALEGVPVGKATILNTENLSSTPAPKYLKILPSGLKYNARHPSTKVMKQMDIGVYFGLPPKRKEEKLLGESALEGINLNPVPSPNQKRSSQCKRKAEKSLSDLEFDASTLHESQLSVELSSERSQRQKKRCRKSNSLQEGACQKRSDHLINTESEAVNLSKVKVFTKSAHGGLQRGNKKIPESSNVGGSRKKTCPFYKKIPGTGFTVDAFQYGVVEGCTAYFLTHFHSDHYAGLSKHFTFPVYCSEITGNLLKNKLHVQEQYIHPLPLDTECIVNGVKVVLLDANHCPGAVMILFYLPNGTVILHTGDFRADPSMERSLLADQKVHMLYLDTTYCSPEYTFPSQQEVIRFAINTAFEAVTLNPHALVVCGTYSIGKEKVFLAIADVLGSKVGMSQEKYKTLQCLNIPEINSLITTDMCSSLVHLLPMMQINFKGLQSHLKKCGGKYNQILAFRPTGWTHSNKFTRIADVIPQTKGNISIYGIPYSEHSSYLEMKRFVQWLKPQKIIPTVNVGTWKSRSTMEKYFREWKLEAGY
# Sequence of UniProt O43781 (whole entry, looked up): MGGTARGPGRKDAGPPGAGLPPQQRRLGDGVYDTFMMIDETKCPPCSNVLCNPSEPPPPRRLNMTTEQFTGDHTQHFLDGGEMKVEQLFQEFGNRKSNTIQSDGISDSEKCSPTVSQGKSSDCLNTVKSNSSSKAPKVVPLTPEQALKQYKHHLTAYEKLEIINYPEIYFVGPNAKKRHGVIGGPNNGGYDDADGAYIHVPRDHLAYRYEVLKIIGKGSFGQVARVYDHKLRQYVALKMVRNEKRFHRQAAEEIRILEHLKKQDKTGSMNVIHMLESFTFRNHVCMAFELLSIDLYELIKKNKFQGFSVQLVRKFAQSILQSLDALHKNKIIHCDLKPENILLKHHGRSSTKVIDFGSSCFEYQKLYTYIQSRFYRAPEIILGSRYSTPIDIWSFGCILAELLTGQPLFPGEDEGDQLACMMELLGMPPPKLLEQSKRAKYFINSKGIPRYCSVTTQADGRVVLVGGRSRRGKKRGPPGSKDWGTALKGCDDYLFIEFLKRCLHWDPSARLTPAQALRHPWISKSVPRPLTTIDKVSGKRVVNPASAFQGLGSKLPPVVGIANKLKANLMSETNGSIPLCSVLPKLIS
# Sequence of UniProt P11802 (whole entry, looked up): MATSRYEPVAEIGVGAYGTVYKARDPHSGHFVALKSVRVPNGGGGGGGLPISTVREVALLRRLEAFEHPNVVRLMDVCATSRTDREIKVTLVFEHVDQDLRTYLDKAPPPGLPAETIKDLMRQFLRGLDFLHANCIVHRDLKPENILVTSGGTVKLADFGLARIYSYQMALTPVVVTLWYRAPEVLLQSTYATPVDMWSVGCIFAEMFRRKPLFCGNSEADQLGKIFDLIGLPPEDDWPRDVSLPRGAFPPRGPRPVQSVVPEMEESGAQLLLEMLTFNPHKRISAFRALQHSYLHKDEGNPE
SMILES,target,test,test system,setting,how to read,remaining activity
O=S(=O)(O)c1cc(N=C=S)ccc1/C=C/c1ccc(N=C=S)cc1S(=O)(=O)O,"DNA cross-link repair 1A protein (DCLRE1A, Homo sapiens, UniProt Q6PJP8)","exonuclease activity, inhibitor, fluorescence HTS",,"10 µM, 80 min, added: 8 nM 5P-FQ substrate",,16.8%
O=C1CCC(N2C(=O)c3cccc4c(Cc5cnn(C6CCN(C(=O)CO)CC6)c5)ccc2c34)C(=O)N1 (stereo not shown),Cereblon/Ikaros,"protein level, degrader, western blot",NCI-H929,"1 nM, 4 h",,44.7%
COC(=O)[C@@]1(C(C)C)C=C(C(=O)Nc2cccc(C(=O)Nc3ccc(Nc4nccc(-c5cccnc5)n4)c(C)c3)c2)C(=O)CC1,MAPK8,"kinase activity, inhibitor",,"44.44 µM, unit not given, added: 10 mM glutathione",relative to: no inhibitor,0.081
O=C1CCC(N2Cc3c(OCc4ccc(CN5CCNCC5)cc4)cccc3C2=O)C(=O)N1 (stereo not shown),Cereblon/Ikaros,"protein level, degrader, western blot",NCI-H929,"1 nM, 4 h",,98.6%
O=C(Cc1ccc(OCc2ccccc2)cc1)NC1(C(=O)O)CCN(C(=O)c2ccc(-c3cccc(Cl)c3)cc2)CC1,"Serine/threonine-protein kinase ATR (ATR, Homo sapiens, UniProt Q13535)","kinase activity, inhibitor",,"10 µM, added: ATP at Km",,103%
COc1ccccc1-c1ccncc1C(=O)Nc1nnc(OCc2ccc(Cl)cc2)s1,"DNA polymerase theta, helicase domain (POLQ, Homo sapiens, UniProt O75417)","ATPase activity, ADP-Glo",,0.03 µM,relative to: 0 µM cpd,43%
Cc1cnc2nc1Nc1cccc(c1)COC/C=C/COCc1cc(ccc1OCCN1CCOCC1)N2,"Epidermal growth factor receptor (EGFR, Homo sapiens, UniProt P00533, G719S)",,,concentration not given,relative to: untreated control,95%
COc1cc(C(=O)/C=C/c2ccc(C(C)C)cc2)cc(OC)c1OC,MAOA,"enzyme activity, inhibitor",,10 µM,,83.3%
CC(C)[C@@H]1NC(=O)[C@H](Cc2ccccc2)NC(=O)CSC[C@@H](C(N)=O)NC(=O)[C@H](CCC(=O)O)NC(=O)[C@H](CO)NC(=O)[C@H](Cc2c[nH]c3cccc(Cl)c23)NC(=O)[C@H](C2CCCCC2)NC(=O)[C@H](C(C)C)NC(=O)[C@H](Cc2ccc(O)cc2)NC(=O)[C@H](CC(=O)O)NC(=O)[C@H](Cc2c[nH]c3ccccc23)NC(=O)[C@H](Cc2ccc(N)nc2)NC(=O)[C@H](Cc2c[nH]c3ccc(Cl)cc23)NC(=O)[C@H](CCC(=O)O)NC1=O,IL1RL2,"reporter gene (SEAP), inhibitor, HEK-Blue IL-36R reporter",HEK-Blue IL-36R cells,"0.14 µM, 6 h, added: IL-36γ 0.03 ng/mL",,8.6%
Cc1ccc(C)c(-c2ccc3nc(NC(=O)C4CCCCC4)nn3c2)c1,"Dual specificity tyrosine-phosphorylation-regulated kinase 3 (DYRK3, Homo sapiens, UniProt O43781)","enzyme activity, Dundee kinase panel",,10 µM,,4%
C[C@](C(=O)NC1CCOCC1)(c1cncnc1)N(C(=O)[C@H](F)Cl)c1ccc(OC(F)(F)Cl)cc1,"Tryptase beta-2 (TPSB2, Homo sapiens, UniProt P20231)","enzyme activity, inhibitor",,10 µM,,101%
CC(C)(O)C(=O)N1CCC(n2cc(Cc3ccc4c5c(cccc35)C(=O)N4C3CCC(=O)NC3=O)cn2)CC1 (stereo not shown),Cereblon/Ikaros,"protein level, degrader, western blot",NCI-H929,"10 nM, 4 h",,5.63%
COC(=O)[C@@]1(C)C=C(C(=O)Nc2cccc(C(=O)Nc3ccc(Nc4nccc(-c5cccnc5)n4)c(C)c3)c2)C(=O)CC1,MAPK8,"enzyme activity, inhibitor",,"2.79e-05 µM, 6 h, unit not given, added: GSH 10 mM pre-incubation",relative to: vehicle,0.965
CN1C[C@@H](c2c[nH]c3cc(Br)ccc23)NC[C@@H]1c1c[nH]c2cc(Br)ccc12,"Cyclin-dependent kinase 12, with cyclin K (CDK12, Homo sapiens, UniProt Q9NYV4)","enzyme activity, inhibitor",,10 µM,,92%
O=C1CCC(N2C(=O)c3cccc4c(Cn5cc(C6CCNCC6)nn5)ccc2c34)C(=O)N1 (stereo not shown),Cereblon/Ikaros,"protein level, degrader, western blot",NCI-H929,"10 nM, 4 h",,39.3%
CC(C)c1ccc(/C=C/C(=O)c2ccc(Br)s2)cc1,MAOA,"enzyme activity, inhibitor",,"about 2 × IC50, 30 min preincubation, after dialysis",,71.3%
O=C1CCC(N2Cc3c(OCc4cn(C5CCNCC5)nn4)cccc3C2=O)C(=O)N1 (stereo not shown),Cereblon/Ikaros,"protein level, degrader, western blot",NCI-H929,"1 nM, 4 h",,91.2%
Nc1ncc(-c2cc(-c3cnn(CC(F)(F)F)c3)ncc2F)nc1C(=O)NC1CNCC(F)C1 (stereo not shown),"Cyclin-dependent kinase 4, with cyclin D1 (CDK4, Homo sapiens, UniProt P11802)",enzyme activity,,1 µM,relative to: DMSO control,96.1%
O=C1CCC(N2C(=O)c3cccc4c(Cc5cnn(C6CCN(C(=O)CS)CC6)c5)ccc2c34)C(=O)N1 (stereo not shown),Cereblon/Ikaros,"protein level, degrader, western blot",NCI-H929,"100 pM, 4 h",,101%
N#Cc1cnc2sc(C(=O)O)cc2c1N1CCc2[nH]nc(C(=O)N[C@@H](CC(=O)NCCOCCN3CCOCC3)c3cccc(Br)c3)c2C1,IL1RL2,"reporter gene (SEAP), inhibitor, HEK-Blue IL-36R reporter",HEK-Blue IL-36R cells,"3.7 µM, 6 h, added: IL36G 0.01 ng/mL",,45.4%
O=C1CCC(N2C(=O)c3cccc4c(Cc5cnn(C6CCNCC6)c5)ccc2c34)C(=O)N1 (stereo not shown),Cereblon/Ikaros,"protein level, degrader, western blot",NCI-H929,"1 nM, 4 h",,73.3%
Cn1nnnc1Sc1c2c(c(C#N)c3nc4ccccc4n13)CCCC2,MAOA,,,100 µM,,93 ± 7.4%

# A few entries again:
SMILES,target,test,test system,setting,how to read,remaining activity
C[C@](C(=O)NC1CCOCC1)(c1cncnc1)N(C(=O)[C@H](F)Cl)c1ccc(OC(F)(F)Cl)cc1,"Tryptase beta-2 (TPSB2, Homo sapiens, UniProt P20231)","enzyme activity, inhibitor",,10 µM,,101%
CC(C)[C@@H]1NC(=O)[C@H](Cc2ccccc2)NC(=O)CSC[C@@H](C(N)=O)NC(=O)[C@H](CCC(=O)O)NC(=O)[C@H](CO)NC(=O)[C@H](Cc2c[nH]c3cccc(Cl)c23)NC(=O)[C@H](C2CCCCC2)NC(=O)[C@H](C(C)C)NC(=O)[C@H](Cc2ccc(O)cc2)NC(=O)[C@H](CC(=O)O)NC(=O)[C@H](Cc2c[nH]c3ccccc23)NC(=O)[C@H](Cc2ccc(N)nc2)NC(=O)[C@H](Cc2c[nH]c3ccc(Cl)cc23)NC(=O)[C@H](CCC(=O)O)NC1=O,IL1RL2,"reporter gene (SEAP), inhibitor, HEK-Blue IL-36R reporter",HEK-Blue IL-36R cells,"0.14 µM, 6 h, added: IL-36γ 0.03 ng/mL",,8.6%
O=C1CCC(N2C(=O)c3cccc4c(Cc5cnn(C6CCNCC6)c5)ccc2c34)C(=O)N1 (stereo not shown),Cereblon/Ikaros,"protein level, degrader, western blot",NCI-H929,"1 nM, 4 h",,73.3%
